{"data": "Measurements of several laboratories"}
{"SMILES": "O=C1Nc2cc3[nH]nc(-c4ccncc4)c3cc2CN1Cc1ccccc1", "assay": "measured: dermatitis acneiform", "test system": "patients with advanced solid tumours", "conditions": "intravenous, dose not given", "measurement": "patients with TEAE", "result": "22%"}
{"SMILES": "CO[C@H]1C[C@@H]2CC[C@@H](C)[C@@](O)(O2)C(=O)C(=O)N2CCCC[C@H]2C(=O)O[C@H]([C@H](C)C[C@@H]2CC[C@@H](OC(=O)NCCOCCOCCOCCOCCOCCOCCOCCOCCC(=O)N3CCc4cc(Cn5nc(-c6ccc7oc(N)nc7c6)c6c(N)ncnc65)ccc4C3)[C@H](OC)C2)C[C@@H](O)[C@H](C)/C=C(\\C)[C@@H](O)[C@@H](OC)C(=O)[C@H](C)C[C@H](C)/C=C/C=C/C=C/1C", "assay": "measured: treatment-related decreased appetite", "test system": "patients with advanced solid tumours", "conditions": "intravenous, 1.6 mg/3 mg, any grade, weekly", "measurement": "patients with AE", "result": "40%"}
{"SMILES": "CC(=O)c1c(C)c2cnc(Nc3ccc(C4CCN(CCS(C)(=O)=O)CC4)cn3)nc2n(C2CCCC2)c1=O", "test system": "HR+/HER2- advanced breast cancer patients", "conditions": "oral, 200 mg", "measurement": "patients with any TRAE", "result": "100%"}
{"SMILES": "CN1CC[C@@H](c2c(O)cc(O)c3c(=O)cc(-c4ccc(C(F)(F)F)cc4Cl)oc23)[C@@H]1CO", "assay": "measured: urinary incontinence", "test system": "AML", "conditions": "oral, 100 mg, grade 3 to 4, intermittent dosing", "measurement": "patients with adverse event", "result": "0%"}
{"SMILES": "Nc1nc2cc(-c3ccc4ncc(C(=O)N5CCOCC5)n4c3)ccc2o1", "assay": "drug-related adverse events, all grades", "test system": "patients with advanced solid tumours", "conditions": "dose not given", "measurement": "patients with adverse events", "result": "89%"}
{"SMILES": "N[C@@H]1c2ccccc2OC12CCN(c1cnc3c(N4CCCc5ncccc54)n[nH]c3n1)CC2", "assay": "phase Ia", "test system": "patients advanced metastatic solid tumours", "conditions": "oral, dose not given", "measurement": "patients with serious AEs", "result": "34%"}
{"SMILES": "CCN(CCO)CCCC(C)Nc1ccnc2cc(Cl)ccc12 (centres unmarked)", "assay": "measured: Hyperglycemia grade 1", "test system": "newly diagnosed glioblastoma patients", "conditions": "oral, 400 mg/dose, with radiotherapy and temozolomide", "measurement": "patients with adverse event", "result": "14%"}
{"SMILES": "C=CCNc1c(O)cc2c(O)c1C[C@@H](C)C[C@H](OC)[C@H](O)[C@@H](C)/C=C(\\C)[C@H](OC(N)=O)[C@@H](OC)/C=C\\C=C(/C)C(=O)N2", "test system": "unresectable or metastatic STS, GIST, other", "conditions": "intravenous, 90 mg/m^2", "measurement": "patients with back pain TEAE", "result": "33%"}
{"note": "Some of these lines once more:"}
{"SMILES": "N[C@@H]1c2ccccc2OC12CCN(c1cnc3c(N4CCCc5ncccc54)n[nH]c3n1)CC2", "assay": "phase Ia", "test system": "patients advanced metastatic solid tumours", "conditions": "oral, dose not given", "measurement": "patients with serious AEs", "result": "34%"}
